Assay results gathered from unrelated publications.
Each line is one published result; not all experiments were run side by side. ± marks the error that the study gave.
Technique: steady-state kinetics
B1: Rtr1 residues 1-213 (Saccharomyces cerevisiae, UniProt P40084); chain MATIEDIKETALIPFQKHRQLSMHEAEVITLEIIGLLCDSECKDEKTLKYLGRFLTPDMYQDLVDERNLNKRCGYPLCGKSPERIRDPFSMNDTTKKFLLENNPYAYLSHYCSKFHFRCSQFYQVQLSDEALFARTGVHLFEDPEQDKHDIDFKVTLFEELLREKASEEDIKSLISGLKKLGLNPDSGTTEKDDTELEDDLSKWLAQIKIVEN
B2: POLK W214Y/W392H (Homo sapiens, UniProt Q9UBT6); chain MGLNDNKAGMEGLDKEKINKIIMEATKGSRFYGNELKKEKQVNQRIENMMQQKAQITSQQLRKAQLQVDRFAMELEQSRNLSNTIVHIDMDAFYAAVEMRDNPELKDKPIAVGSMSMLSTSNYHARRFGVRAAMPGFIAKRLCPQLIIVPPNFDKYRAVSKEVKEILADYDPNFMAMSLDEAYLNITKHLEERQNYPEDKRRYFIKMGSSVENDNPGKEVNKLSEHERSISPLLFEESPSDVQPPGDPFQVNFEEQNNPQILQNSVVFGTSAQEVVKEIRFRIEQKTTLTASAGIAPNTMLAKVCSDKNKPNGQYQILPNRQAVMDFIKDLPIRKVSGIGKVTEKMLKALGIITCTELYQQRALLSLLFSETSHHYFLHISLGLGSTHLTRDGERKSMSVERTFSEINKAEEQYSLCQELCSELAQDLQKERLKGRTVTIKLKNVNFEVKTRASTVSSVVSTAEEIFAIAKELLKTEIDADFPHPLRLRLMGVRISSFPNEEDRKHQQ
B3: protein Y93W (Thermus thermophilus, UniProt Q5SKR5); chain MSAPKPFVIGIAGGTASGKTTLAQALARTLGERVALLPMDHYYKDLGHLPLEERLRVNYDHPDAFDLALYLEHAQALLRGLPVEMPVYDFRAWTRSPRRTPVRPAPVVILEGILVLYPKELRDLMDLKVFVDADADERFIRRLKRDVLERGRSLEGVVAQYLEQVKPMHLHFVEPTKRYADVIVPRGGQNPVALEMLAAKALARLARMGAA
B4: YdjH (Escherichia coli, UniProt P77493); chain MDNLDVICIGAAIVDIPLQPVSKNIFDVDSYPLERIAMTTGGDAINEATIISRLGHRTALMSRIGKDAAGQFILDHCRKENIDIQSLKQDVSIDTSINVGLVTEDGERTFVTNRNGSLWKLNIDDVDFARFSQAKLLSLASIFNSPLLDGKALTEIFTQAKARQMIICADMIKPRLNETLDDICEALSYVDYLFPNFAEAKLLTGKETLDEIADCFLACGVKTVVIKTGKDGCFIKRGDMTMKVPAVAGITAIDTIGAGDNFASGFIAALLEGKNLRECARFANATAAISVLSVGATTGVKNRKLVEQLLEEYEG
B5: iodotyrosine deiodinase (Haliscomenobacter hydrossis, UniProt F4KU78); chain MKQKPAFIPYAGAQFEPEEMLSKSAEYYQFMDHRRTVREFSNRAIPLEVIENIVMTASTAPSGAHKQPWTFVVVSDPQIKAKIRQAAEKEEFESYNGRMSNEWLEDLQPFGTDWHKPFLEIAPYLIVVFRKAYDVLPDGTQRKNYYVQESVGIACGFLLAAIHQAGLVALTHTPSPMNFLQKILQRPENERPFLLVPVGYPAEGAMVPDLQRKDKAAVMVVY
B6: Nudt8 (Mus musculus, UniProt Q9CR24); chain MLPDGLSAEDEQRCRQLLARTTARLRSRPAAAAVLVPLCLVRGVPALLYTLRSSRLVGRHKGEVSFPGGKCDPDDQDVIHTALRETQEELGLEVPKEHVWGVLQPVYDREKATIVPVLANVGPLDLQSLRPNLEEVDEVFEMSLAHLLQTQNQGYTHFCQGGHFSYTLPVFLHGPHRVWGLTAVITELTLKLLAPGFYQPSLAVPELPRG
B7: HCT R356D (Coleus scutellarioides, UniProt E8ZAP2); chain MKIHVRDSTLVRPSAATPAVSLWNSNVDLVVPNFHTPSVYFYRPSGADNFFDTAVMKAALGRALVSFYPMAGRLKRDEDGRVEIDCNAEGVLFVEAESDGTVDDYGDFAPSLELRRLIPAVDYSQGISAYPLLVLQVTFFKCGGVSLGVGMQHHAADGFSGLHFINTWSDMARGLDITLPPFIDRTLLSARDPPQPQFKHVEYQPPPAMKTYEPAETVVSIFKLTKDQLTTLKAKSKEDGNTTTYSSYEMLSGHVWRCTCLARGLPEEQETKLYIATDGRSRLQPQLPPGYFGNVIFTATPLAVAGDLGSKPVWYAASKIHDALARMDNDYLRSALDFLELQPDLKALVRGAHTFDCPNLGITSWVRLPIHDADFGWGRPIFMGPGGIAYEGLSFVLPSPTNDGSLSVAISLQAEHMKLFEKLLYQI
B8: cyc1 A236G (Streptomyces coelicolor, UniProt Q9K499); chain MHAFPHGTTATPTAIAVPPSLRLPVIEAAFPRQLHPYWPKLQETTRTWLLEKRLMPADKVEEYADGLCYTDLMAGYYLGAPDEVLQAIADYSAWFFVWDDRHDRDIVHGRAGAWRRLRGLLHTALDSPGDHLHHEDTLVAGFADSVRRLYAFLPATWNARFARHFHTVIEAYDREFHNRTRGIVPGVEEYLELRRLTFAHWIWTDLLEPSSGCELPDAVRKHPAYRRAALLSQEFGAWYNDLCSLPKEIAGDEVHNLGISLITHHSLTLEEAIGEVRRRVEECITEFLAVERDALRFADELADGTVRGKELSGAVRANVGNMRNWFSSVYWFHHESGRYMVDSWDDRSTPPYVNNEAAGEK
B9: enzyme (Brachypodium distachyon, UniProt I1IPY7); chain MEQGKAALGWAARDASGHLSPYNFSRRVQKDDDVTIKVLFCGICHTDLHIIKNEWGNALYPIVPGHEVVGVVTDVGPGVKNFKAGETVGVGYFLDSCRTCDSCSKGHENYCPTLVLTSNGVDYDGATTQGGFSDVVVVNQDYVVRVPDTLPPDGAAPLLCAGVTVYSPMMQYGLNAPGKHLGVVGLGGLGHMAVKFGKAFGMKVTVISSSLRKREEALDRLGADDFLVSSDAEQMKAAAGAMDGIIDTVSAGHPIVPLLELLRPMGQMVVCGAPSEPLQLPAYAVITGGKRIAGNGVGSVRDCQAMLDFAGEHGITADVEVVKMDYVNTAVERLERNDVRYRFVIDVAGSLQQGGAA
B10: ASRGL1 (Homo sapiens, UniProt Q7L266); chain 1 MNPIVVVHGGGAGPISKDRKERVHQGMVRAATVGYGILREGGSAVDAVEGAVVALEDDPEFNAGCGSVLNTNGEVEMDASIMDGKDLSAGAVSAVQCIANPIKLARLVMEKTPHCFLTDQGAAQFAAAMGVPEIPGEKLVTERNKKRLEKEKHEKGAQKTDCQKNLG; chain 2 TVGAVALDCKGNVAYATSTGGIVNKMVGRVGDSPCLGAGGYADNDIGAVSTTGHGESILKVNLARLTLFHIEQGKTVEEAADLSLGYMKSRVKGLGGLIVVSKTGDWVAKWTSTSMPWAAAKDGKLHFGIDPDDTTITDLP
B11: enzyme (Thermobifida fusca, UniProt Q47RA9); chain MIMIMASKSSPHDLPDVSGLSIAVLGGTGDQGRGLARRFAMAGHEVILGSRSAERAQAVAAELGEGLPVRGMDNAGAAEAGDVVIVAVPWDGHRALLESLKDVLAGKIVVDCVNPLGFDKRGAYALPVEEGSAAEQAAAILPDSRVVAAFHHVSAVLLLDPEVEKVDLDVLVLGDDREATDVVRALAARIPGVRGVYGGRLRNAHQVEAFTANLISINRRYKAHAGIRITDI
B12: enzyme (Phocaeicola vulgatus, UniProt A6KWY5); chain MKAIQITAPSEMKVVDIEKPVLEPGEVLVKIKYVGFCGSDLNTFLGRNPMVKLPVIPGHEVGAVIEAVGKDVPDSLKPGMSVTVNPYTNCGKCASCRNGRVNACEHNETLGVQRNGAMCEYIALPWSKIIPAHRIPPRDCALIEPMSVGFHAVSRAQVTDIDIVMVIGCGMIGMGAIVRSALRGATVIAVDLDDEKLELAKRIGAHHTINSMTENVHECLTKITEGLGPDVVIEAVGSPATYVMAVNEVGFTGRVVCIGYAKSEVSFQTKYFVQKELDIRGSRNALPTDFRAVIRYMEQGTCPKNELISKVVKPEAAIQAMKEWAAAPGKVFRILVEFD
Chain of UniProt P07914 (whole entry, looked up): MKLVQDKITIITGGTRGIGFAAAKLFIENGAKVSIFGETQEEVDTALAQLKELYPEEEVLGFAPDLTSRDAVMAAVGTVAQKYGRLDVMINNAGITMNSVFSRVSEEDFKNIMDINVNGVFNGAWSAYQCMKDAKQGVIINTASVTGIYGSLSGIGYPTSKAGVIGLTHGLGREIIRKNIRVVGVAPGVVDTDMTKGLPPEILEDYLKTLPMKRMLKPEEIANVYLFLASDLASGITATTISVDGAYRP
Chain of UniProt P14780 (whole entry, looked up): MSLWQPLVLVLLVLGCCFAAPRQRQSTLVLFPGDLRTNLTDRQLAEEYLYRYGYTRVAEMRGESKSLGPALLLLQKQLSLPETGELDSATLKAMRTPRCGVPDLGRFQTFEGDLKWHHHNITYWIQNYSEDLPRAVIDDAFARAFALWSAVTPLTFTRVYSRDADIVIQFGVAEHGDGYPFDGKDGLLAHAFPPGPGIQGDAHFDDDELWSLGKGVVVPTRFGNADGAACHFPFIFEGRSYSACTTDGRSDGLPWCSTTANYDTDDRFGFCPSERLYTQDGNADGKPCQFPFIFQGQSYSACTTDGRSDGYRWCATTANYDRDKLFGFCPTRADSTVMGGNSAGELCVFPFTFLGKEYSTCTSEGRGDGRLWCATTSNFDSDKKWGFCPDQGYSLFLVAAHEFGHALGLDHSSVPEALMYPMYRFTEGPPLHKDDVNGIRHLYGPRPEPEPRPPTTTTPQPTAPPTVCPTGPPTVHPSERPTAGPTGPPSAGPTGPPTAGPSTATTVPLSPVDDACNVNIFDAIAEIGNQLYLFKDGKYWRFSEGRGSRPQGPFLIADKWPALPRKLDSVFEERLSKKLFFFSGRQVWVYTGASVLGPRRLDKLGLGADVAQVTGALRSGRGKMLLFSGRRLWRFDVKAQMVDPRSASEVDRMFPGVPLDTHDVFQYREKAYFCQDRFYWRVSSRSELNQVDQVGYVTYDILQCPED
Chain of UniProt Q8C0L6 (whole entry, looked up): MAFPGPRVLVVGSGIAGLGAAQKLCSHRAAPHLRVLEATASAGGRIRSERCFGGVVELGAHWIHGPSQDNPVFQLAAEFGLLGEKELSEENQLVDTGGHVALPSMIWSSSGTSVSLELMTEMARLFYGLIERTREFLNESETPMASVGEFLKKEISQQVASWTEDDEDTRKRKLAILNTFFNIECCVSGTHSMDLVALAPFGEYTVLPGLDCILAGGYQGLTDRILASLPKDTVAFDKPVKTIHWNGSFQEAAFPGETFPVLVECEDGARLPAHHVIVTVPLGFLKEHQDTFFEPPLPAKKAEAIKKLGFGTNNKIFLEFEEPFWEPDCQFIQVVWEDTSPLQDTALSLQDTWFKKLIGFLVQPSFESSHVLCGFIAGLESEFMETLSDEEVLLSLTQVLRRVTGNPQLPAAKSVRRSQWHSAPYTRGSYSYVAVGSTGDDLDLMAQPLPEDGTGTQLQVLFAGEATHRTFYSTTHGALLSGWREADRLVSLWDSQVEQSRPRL
Chain of UniProt Q8QZR1 (whole entry, looked up): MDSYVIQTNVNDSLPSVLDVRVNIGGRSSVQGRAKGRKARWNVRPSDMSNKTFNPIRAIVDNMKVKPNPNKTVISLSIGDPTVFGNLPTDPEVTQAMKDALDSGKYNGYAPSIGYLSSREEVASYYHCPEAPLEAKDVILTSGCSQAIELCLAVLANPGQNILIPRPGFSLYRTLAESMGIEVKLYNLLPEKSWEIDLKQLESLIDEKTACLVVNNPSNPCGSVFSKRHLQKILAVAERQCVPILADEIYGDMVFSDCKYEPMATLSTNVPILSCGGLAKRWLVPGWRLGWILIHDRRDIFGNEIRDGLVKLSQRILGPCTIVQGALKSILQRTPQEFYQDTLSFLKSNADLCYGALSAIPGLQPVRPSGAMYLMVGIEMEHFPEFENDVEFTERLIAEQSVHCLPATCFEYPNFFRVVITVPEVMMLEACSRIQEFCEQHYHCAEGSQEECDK

The kcat/Km of `Paox (Mus musculus, UniProt Q8C0L6)` is reported as 33000 ± 2000 M⁻¹ s⁻¹ (c1ccc(CNCCCCNCc2ccccc2)cc1; pH 8.6, 30 °C).
With `B1 (Rtr1 residues 1-213)` the kcat/Km was 1.83e+07 M⁻¹ s⁻¹ (Cc1cc(=O)oc2c(F)c(OP(=O)(O)O)c(F)cc12; pH 6, NaCl 150 mM, no metal added).
`B2 (POLK W214Y/W392H)` has a kcat/Km of 10000 M⁻¹ s⁻¹ (Nc1ccn([C@H]2C[C@H](O)[C@@H](COP(=O)(O)OP(=O)(O)OP(=O)(O)O)O2)c(=O)n1; pH 7.5, 23 °C, MgCl2 5 mM, added: G template).
`B3 (protein Y93W)` gave a kcat/Km of 6000 M⁻¹ s⁻¹ (Nc1ccn([C@@H]2O[C@H](CO)[C@@H](O)[C@H]2O)c(=O)n1; pH 7.2, 25 °C, KCl 100 mM, added: ATP 100–200 µM).
`MMP9 (Homo sapiens, UniProt P14780)` has a kcat/Km of 50000 M⁻¹ s⁻¹ (CC(=O)NCC(=O)N1CCC[C@H]1C(=O)N[C@@H](CC(C)C)C(=O)NCC(=O)N[C@@H](CC(C)C)C(=O)N[C@@H](CO)C(=O)N[C@@H](CC(C)C)C(=O)NCC(=O)N[C@@H](CCCCN)C(N)=O).
For `B4 (YdjH)`, the kcat/Km was 1.4 ± 0.2 M⁻¹ s⁻¹ (OC[C@H]1O[C@H](CO)[C@@H](O)[C@@H]1O; pH 7.4, 30 °C, KCl 100 mM, added: ATP 2.0 mM, MgCl2 5.0 mM).
For `B5 (iodotyrosine deiodinase)`, the kcat/Km was 50000 ± 10000 M⁻¹ s⁻¹ (Cc1cc(C[C@H](N)C(=O)O)cc(I)c1O; pH 7.4, 25 °C).
With `protein (Cecembia lonarensis, UniProt K1KV82)` the kcat/Km was 12200 ± 700 M⁻¹ s⁻¹ (C[C@@H]1O[C@@H](Oc2ccc([N+](=O)[O-])cc2)[C@@H](O)[C@H](O)[C@H]1O; pH 5.5, 35 °C).
The kcat/Km of `enzyme (Limosilactobacillus reuteri, UniProt Q5SBN3)` is reported as 100000 M⁻¹ s⁻¹ (OC[C@H]1O[C@@](CO)(O[C@H]2O[C@H](CO)[C@@H](O)[C@H](O)[C@H]2O)[C@@H](O)[C@@H]1O; pH 4.7, 37 °C).
For `BaiA1 (Clostridium scindens, UniProt P07914)`, the kcat/Km was 17700 M⁻¹ s⁻¹ (NC(=O)c1ccc[n+]([C@@H]2O[C@H](COP(=O)(O)OP(=O)(O)OC[C@H]3O[C@@H](n4cnc5c(N)ncnc54)[C@H](O)[C@@H]3O)[C@@H](O)[C@H]2O)c1; pH 8.7, 37 °C, cofactor varied, added: glycocholic acid 1.4 mM).
`B6 (Nudt8)` has a kcat/Km of 13200 M⁻¹ s⁻¹ (CC(C)(COP(=O)(O)OP(=O)(O)OC[C@H]1O[C@@H](n2cnc3c(N)ncnc32)[C@H](O)[C@@H]1OP(=O)(O)O)[C@@H](O)C(=O)NCCC(=O)NCCSC(=O)CC(=O)O; pH 8.5, added: 2 mM Mn2+).
`B7 (HCT R356D)` gave a kcat/Km of 29.1 ± 1.4 M⁻¹ s⁻¹ (NCCc1ccc(O)c(O)c1; pH 8, pseudo-first-order, added: p-coumaroyl CoA).
The kcat/Km of `B8 (cyc1 A236G)` is reported as 150000 ± 20000 M⁻¹ s⁻¹ (CC(C)=CCC/C(C)=C/CC/C(C)=C/CO[P@@](=O)(O)OP(=O)(O)O; pH 6.5, 30 °C, added: MgCl2 10 mM).
For `B9 (enzyme)`, the kcat/Km was 79000 M⁻¹ s⁻¹ (NC(=O)c1ccc[n+]([C@@H]2O[C@H](COP(=O)(O)OP(=O)(O)OC[C@H]3O[C@@H](n4cnc5c(N)ncnc54)[C@H](OP(=O)(O)O)[C@@H]3O)[C@@H](O)[C@H]2O)c1; pH 8.8, 23 °C, cofactor varied).
`B10 (ASRGL1)` gave a kcat/Km of 2000 ± 300 M⁻¹ s⁻¹ (NC(=O)C[C@H](N)C(=O)O; pH 7.4, 37 °C, NaCl 100 mM).
`B11 (enzyme)` gave a kcat/Km of 0.17 ± 0.022 M⁻¹ s⁻¹ (NC(=O)c1ccc[n+](CCCO)c1; pH 8, 25 °C).
`B12 (enzyme)` gave a kcat/Km of 160000 ± 20000 M⁻¹ s⁻¹ (O=C(O)[C@@H](O)[C@H](O)[C@H](O)C(=O)CO; pH 7, 30 °C).
`Tat (Mus musculus, UniProt Q8QZR1)` gave a kcat/Km of 333 M⁻¹ s⁻¹ (CCCCC(=O)C(=O)O; pH 7, 38 °C, added: PLP).
